# Measured values collected from several papers.
# Parts stem from different laboratories: compare values within a part only.

# Set 1 — method: RNA Bind-n-Seq; form: RNA; medium: in vitro; concentration: 200 nM; setting: whole 134-nt RNA, ends assumed; together with: 150 mM KCl; reference: input library; direction: higher = stronger binding
# Target: Ras GTPase-activating protein-binding protein 1, full length (G3BP1, Homo sapiens, UniProt Q13283)
# Sequence of UniProt Q13283 (whole entry, looked up): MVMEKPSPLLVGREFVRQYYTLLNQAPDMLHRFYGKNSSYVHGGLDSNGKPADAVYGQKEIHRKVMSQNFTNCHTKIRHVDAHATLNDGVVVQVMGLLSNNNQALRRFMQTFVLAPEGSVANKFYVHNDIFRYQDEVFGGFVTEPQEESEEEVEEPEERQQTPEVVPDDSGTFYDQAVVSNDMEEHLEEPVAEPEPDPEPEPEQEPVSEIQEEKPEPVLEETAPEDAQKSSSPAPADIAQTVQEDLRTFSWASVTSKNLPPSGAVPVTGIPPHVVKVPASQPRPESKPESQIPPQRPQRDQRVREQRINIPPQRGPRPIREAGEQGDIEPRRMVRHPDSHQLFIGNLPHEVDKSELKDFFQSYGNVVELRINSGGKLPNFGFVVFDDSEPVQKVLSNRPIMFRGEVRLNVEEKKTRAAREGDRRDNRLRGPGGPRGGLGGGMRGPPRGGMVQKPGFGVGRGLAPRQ
# Shared flanks, not repeated: GGGAGUUCUACAGUCCGACGAUC … UGGAAUUCUCGGGUGUCAAGG
Oligonucleotide,log2 enrichment
CUCAAGUCCUGUGCUACACAUCGUAUGUACCGAAUCGGGGUGGUGGGGUGGGGAAAGUAUUAUGUUACGCCGUUCGGAUCUGCACUUCCA,0.517
CUCAAGUCCUGUGCUACACAUCGUAUGUACCGAAUCGGAAAAAGGAGGAAAGGAAAGUAUUAUGUUACGCCGUUCGGAUCUGCACUUCCA,-0.465
UCCUCAAGUCCUGUGCUACACAUCGUAUGUACCGAAUCGGGCGGCGGGCGGAAAGUAUUAUGUUACGCCGUUCGGAUCUGCACUUCCAGC,-0.625
CCUGUGCUACACAUCGUAUGUACCGAAUCGGUUUUUUUGGUUUUUUUGGUUUUUUUGGGGAAAGUAUUAUGUUACGCCGUUCGGAUCUGC,-1.2
GUCCUGUGCUACACAUCGUAUGUACCGAAUCGGGAAAAAGGGAAAGGGAAAAAAAGGGAAAGUAUUAUGUUACGCCGUUCGGAUCUGCAC,-0.407
UAACUUUAGAGGAGGAUCUGAUGGAUAUGGCAGUGGACGUGGAUUUGGGGAUGGCUAUAAUGGUUAUGGAGGAGGACCUGGAGGUGGCAA,0.223

# Set 2 — method: protein binding microarray; form: double-stranded DNA, one strand shown; medium: in vitro; concentration: not given; reference: not given; direction: higher = stronger binding
# Target: Histone acetyltransferase KAT6A, winged helix 1, GST fusion (KAT6A, Homo sapiens, UniProt Q92794, residues 1-85)
# Setting: 8-mer, flanks averaged, mean of 2 arrays, mostly near background
# Target sequence (chain): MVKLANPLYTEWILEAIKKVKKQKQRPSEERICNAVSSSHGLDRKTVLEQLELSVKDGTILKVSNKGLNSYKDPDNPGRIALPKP
Oligonucleotide,E-score
GATTAGAA,-0.234
AAAAGAGT,-0.107
CTATCGAC,0.00918
ATACGCTG,0.134
AGAGCGGG,0.331
CCCAAGCC,0.108
ACCGATCG,0.18
CTGTGGAC,-0.205
CGCCGATA,0.379
TAGCAATA,-0.173

# Set 3 — method: universal PBM; form: double-stranded DNA, one strand shown; medium: in vitro; concentration: 600 nM; direction: higher = stronger binding
# Target: Sal-like protein 4, full length isoform A (SALL4, Homo sapiens, UniProt Q9UJQ4, residues 1-1053)
# Sequence of UniProt Q9UJQ4 (whole entry, looked up): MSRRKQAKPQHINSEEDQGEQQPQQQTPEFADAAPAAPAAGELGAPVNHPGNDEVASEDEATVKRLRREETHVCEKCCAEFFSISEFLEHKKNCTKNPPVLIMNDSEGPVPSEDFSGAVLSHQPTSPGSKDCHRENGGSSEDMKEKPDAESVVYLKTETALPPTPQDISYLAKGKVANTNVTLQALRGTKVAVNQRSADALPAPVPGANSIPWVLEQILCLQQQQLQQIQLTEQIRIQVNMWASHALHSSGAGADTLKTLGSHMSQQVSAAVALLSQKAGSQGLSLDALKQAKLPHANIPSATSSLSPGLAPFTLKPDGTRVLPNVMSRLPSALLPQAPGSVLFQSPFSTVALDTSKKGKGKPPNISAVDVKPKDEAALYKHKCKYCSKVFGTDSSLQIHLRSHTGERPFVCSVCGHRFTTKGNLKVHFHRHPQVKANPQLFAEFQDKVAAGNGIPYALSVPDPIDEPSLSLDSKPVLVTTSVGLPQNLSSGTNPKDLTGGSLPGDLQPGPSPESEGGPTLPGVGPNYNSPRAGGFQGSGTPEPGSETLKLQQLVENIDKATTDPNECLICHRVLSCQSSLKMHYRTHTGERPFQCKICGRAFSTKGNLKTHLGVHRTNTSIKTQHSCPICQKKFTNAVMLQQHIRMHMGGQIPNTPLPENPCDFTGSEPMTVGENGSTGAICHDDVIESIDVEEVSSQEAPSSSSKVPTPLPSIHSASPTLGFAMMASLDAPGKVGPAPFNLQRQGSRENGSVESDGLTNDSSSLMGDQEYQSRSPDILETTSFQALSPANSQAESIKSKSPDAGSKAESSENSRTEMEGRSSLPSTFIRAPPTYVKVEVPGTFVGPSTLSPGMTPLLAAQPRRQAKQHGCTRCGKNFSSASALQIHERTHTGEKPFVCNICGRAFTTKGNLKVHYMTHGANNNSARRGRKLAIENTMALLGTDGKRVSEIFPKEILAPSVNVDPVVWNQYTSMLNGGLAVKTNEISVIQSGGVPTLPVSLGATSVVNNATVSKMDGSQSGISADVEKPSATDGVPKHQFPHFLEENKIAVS
# Setting: 8-mer, flanks averaged, mean of replicates
Oligonucleotide,E-score
ATCCACTA,0.0888
CAGTAGAG,-0.0971
TAAGAGTA,0.299
ATGGTGGG,-0.256
ACCTCTTA,0.0678
ACGATACC,0.0303
CCCTCTAC,-0.259

# Further values, each from its own experiment
Substance,target,assay,system,setting,how to read,quantity,result
"PhoQ, residues 284 288 289 292 302 303 AANNSF","PhoP, residues 12 14 15 18 19 NMSFL (Escherichia coli, UniProt P23836)","Sort-seq, item: YFP reporter",E. coli,"PhoQ-PhoP variant library, together with: 10 µM Mg2+","reference: high Mg2+ state, higher = stronger signaling",fold induction,7.24

# For quick reference, copied from above (set 2):
Oligonucleotide,E-score
ACCGATCG,0.18
CTGTGGAC,-0.205
CGCCGATA,0.379
